Measured values collected from several papers.
Compare with care: the assays were run in different laboratories.

For CCOc1c([C@H](C)n2nc(C)c3c(N)ncnc32)cc(Cl)c(F)c1[C@@H]1CNC(=O)C1, the patients was 0% (item: QTcF change above 60 ms; previously treated B-cell malignancy; oral, 15 mg once daily, overall population; relative to: baseline).
For C[C@@H](Nc1cc(F)cc(F)c1)c1cc(C(=O)N(C)C)cc2c(=O)cc(N3CCOCC3)oc12, “patients discontinuing for AE” read 0% (CTCAE v4, item: autoimmune colitis; patients with advanced solid tumours; oral, dose not given, phase I dose expansion).
CNC(=O)c1ccc(-c2cnc3ncc(Cc4ccc5ncccc5c4)n3n2)cc1F — result for “patients with adverse event”: 6% (item: Hypoalbuminemia, all grades; cancer patients; oral, 600 mg twice daily, other expansion cohort, any causality).
NC(=O)N1c2ccccc2C=Cc2ccccc21: “patients with Lymphadenopathy” 7% (male patients; oral, dose not given, on-treatment adverse events).
For Cc1cc(NC2CCN(C(=O)OC3CCN(C(=O)/C=C/CN(C)C)C3)CC2)n2ncc(C(C)C)c2n1 (stereo not shown), “patients with adverse event” read 18% (Phase I dose escalation CTCAE v4.0, item: blood creatinine increased; patients with advanced solid tumours; dose not given, TIW dosing any grade).
For COc1ccc([C@@H](O)c2cc(-c3ncnc4cc(N5CCOCC5)ccc34)c(F)cc2Cl)nn1, “patients with anemia” read 17% (locally advanced rectal cancer patients; 100 mg, drug-related adverse events, together with: capecitabine and radiotherapy).
For Cc1cc(-c2nnc(N)nc2-c2ccc(F)cc2)cc(Cl)n1, “patients with treatment-related AE” read 47.4% (item: Fatigue; other solid tumours, IO-naive; oral, 100 mg once daily, all grades).
O=C(Nc1nc2cccc(-c3ccc(CN4CCS(=O)(=O)CC4)cc3)n2n1)C1CC1 — result for “patients with Hypercholesterolemia”: 0% (rheumatoid arthritis patients; oral, 100 mg twice daily, 4 weeks, TEAE regardless of relatedness).
Under “patients with grade 3 cardiac disorders”, CNC(=O)c1cc(Oc2ccc(NC(=O)Nc3cc(C(C)(C)C)nn3-c3ccc4ncccc4c3)c(F)c2)ccn1 is recorded as 6% (patients; oral, dose not given, cycles 1 and 2, High Cmax subgroup).
COc1cc(Nc2ncc3c(n2)-c2ccc(Cl)cc2C(c2c(F)cccc2OC)=NC3)ccc1C(=O)O: “patients with increased creatinine” 17% (cancer patients; oral, dose not given, all grades any attribution, together with: pembrolizumab).
